Published values from different studies.
Parts stem from different laboratories: compare values within a part only.

Sample 1
Target: Centromere-binding protein 1, full length, N-terminal tag (CBF1, Saccharomyces cerevisiae, UniProt P17106, residues 1-351)
UniProt P17106, sequence (whole entry, looked up): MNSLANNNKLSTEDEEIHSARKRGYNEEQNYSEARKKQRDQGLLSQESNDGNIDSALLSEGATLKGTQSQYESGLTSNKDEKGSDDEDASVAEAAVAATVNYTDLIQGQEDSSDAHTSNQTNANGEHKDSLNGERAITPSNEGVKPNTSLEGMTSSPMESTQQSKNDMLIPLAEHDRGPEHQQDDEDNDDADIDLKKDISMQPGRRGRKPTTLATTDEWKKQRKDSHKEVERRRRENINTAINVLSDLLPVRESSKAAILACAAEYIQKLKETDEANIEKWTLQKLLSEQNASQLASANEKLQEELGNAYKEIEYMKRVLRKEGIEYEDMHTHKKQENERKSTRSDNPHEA
Technique: protein-binding microarray
Molecule type: double-stranded DNA, one strand shown
Matrix: in vitro
Concentration: 0.8 µM
Notes: whole 60-bp probe, no competitor
Reading: higher = stronger binding
Endpoint: fluorescence intensity
Constant ends, left off below: … GTCTTGATTCGCTTGACGCTGCTG
GAAATATCCTGCACTGACGTGTCACAAGAAAAATAG: 676 a.u.
CTACCTTGAACTTCTCGGGTGACCCCCTTAGCGTTC: 508 a.u.
GAAAAAAAAAAAAGATGCATGATGTATTTGGTATAG: 546 a.u.
CTATTTGGTTTTATTCATATGATTCTTCTTTAGTTC: 531 a.u.
GAAAGCAAGTAGAGTCACGTACCCCCCAGTAGATAG: 994 a.u.

Sample 2
Target: Interferon regulatory factor 7, full length, phosphomimetic (IRF7, Homo sapiens, UniProt Q92985, residues 1-503, S101K/S471D/S472D/S475D/S476D/S477D/S483D/S484D/S487D)
UniProt Q92985, sequence (whole entry, unmodified, looked up): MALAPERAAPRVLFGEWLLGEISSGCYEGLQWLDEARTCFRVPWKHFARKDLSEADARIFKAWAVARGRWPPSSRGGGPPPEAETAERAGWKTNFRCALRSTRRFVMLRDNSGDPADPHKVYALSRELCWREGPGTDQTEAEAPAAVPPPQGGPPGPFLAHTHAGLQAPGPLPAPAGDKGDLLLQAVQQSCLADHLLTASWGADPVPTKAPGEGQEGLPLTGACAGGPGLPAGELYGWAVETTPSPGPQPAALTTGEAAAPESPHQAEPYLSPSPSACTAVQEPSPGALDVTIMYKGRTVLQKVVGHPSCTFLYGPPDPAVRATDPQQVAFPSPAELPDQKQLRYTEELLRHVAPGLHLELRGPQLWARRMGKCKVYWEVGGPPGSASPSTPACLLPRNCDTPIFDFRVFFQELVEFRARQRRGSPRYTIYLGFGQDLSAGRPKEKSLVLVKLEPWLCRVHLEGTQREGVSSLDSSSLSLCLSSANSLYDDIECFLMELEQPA
Technique: protein-binding microarray
Molecule type: double-stranded DNA, one strand shown
Matrix: in vitro
Concentration: 250 nM
Notes: 60-bp whole probe
Together with: salmon DNA 0.4 mg/ml
Relative to: random background probes
Reading: higher = stronger binding
Endpoint: log fluorescence
GCCTAGCACGACGGGCTCCTTCTCCTGACGTGCTAGGTCTTGATTCGCTTGACGCTGCTG: 0.0356 z-score
GCCTAGCACTTAGGATTCGGTTTCGGTTAGTGCTAGGTCTTGATTCGCTTGACGCTGCTG: 12.1 z-score
GCCTAGCACTTAGGCCTGGGACTGGGTTAGTGCTAGGTCTTGATTCGCTTGACGCTGCTG: -0.265 z-score

Sample 3
Target: Histone acetyltransferase KAT6A, winged helix 2, GST fusion (KAT6A, Homo sapiens, UniProt Q92794, residues 85-181)
Technique: protein binding microarray
Molecule type: double-stranded DNA, one strand shown
Matrix: in vitro
Concentration: not given
Notes: 8-mer, flanks averaged, mean of 2 arrays, mostly near background
Relative to: not given
Reading: higher = stronger binding
Endpoint: E-score
Target sequence (chain): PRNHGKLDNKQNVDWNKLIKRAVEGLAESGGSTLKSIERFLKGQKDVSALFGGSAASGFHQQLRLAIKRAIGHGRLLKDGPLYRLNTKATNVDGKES
CCGGCCTC: 0.15
CAGTTGTA: -0.0631
ACGCCCAG: 0.00709
ACGCGATG: 0.0364
AATATTTC: 0.101
GAAATAAC: 0.0712
AAACCGCC: 0.153
AGATCGGC: 0.101

Mixed results
PhoQ, residues 284 288 289 292 302 303 ALASRC  fold induction (PhoP, residues 12 14 15 18 19 NQAHL (Escherichia coli, UniProt P23836); Sort-seq, item: YFP reporter; E. coli; PhoQ-PhoP variant library, together with: 10 µM Mg2+; relative to: high Mg2+ state, higher = stronger signaling): 1.42

For quick reference, copied from above (sample 1):
CTATTTGGTTTTATTCATATGATTCTTCTTTAGTTC: 531 a.u.
GAAAAAAAAAAAAGATGCATGATGTATTTGGTATAG: 546 a.u.
